Assay results collected from several papers.
Target: Carbonic anhydrase 12 (CA12, Homo sapiens, UniProt O43570)
Sequence of UniProt O43570 (whole entry, looked up): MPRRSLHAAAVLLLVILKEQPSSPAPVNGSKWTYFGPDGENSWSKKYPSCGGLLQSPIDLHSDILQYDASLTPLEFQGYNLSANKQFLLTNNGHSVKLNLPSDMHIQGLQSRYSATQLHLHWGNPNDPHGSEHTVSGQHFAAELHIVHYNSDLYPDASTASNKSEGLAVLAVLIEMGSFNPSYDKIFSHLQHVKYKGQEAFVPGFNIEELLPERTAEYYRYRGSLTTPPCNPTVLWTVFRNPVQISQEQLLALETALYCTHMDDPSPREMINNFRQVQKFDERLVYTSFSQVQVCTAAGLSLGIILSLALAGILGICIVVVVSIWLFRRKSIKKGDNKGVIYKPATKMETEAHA

SMILES | mode | method | reference | selectivity ratio
COc1cc(-c2ccnc3nc(Nc4ccc(S(N)(=O)=O)cc4)nn23)cc(OC)c1OC |  | stopped-flow CO2 hydrase | Ki hCA I over Ki CA12 | 38.6
NS(=O)(=O)c1c(F)c(NCCc2ccc(O)cc2)c(SCCO)c(NC2CCCCCCCCCCC2)c1F |  | thermal shift | Kd CA II over Kd CA XII | > 400
COc1cccc(/C=N/NC(=O)CSc2nc3ccccc3c(=O)n2CCc2ccc(S(N)(=O)=O)cc2)c1 | inhibitor | stopped-flow | Ki hCA I over Ki hCA XII | 12.8
COCCOc1cc2ncnc(Nc3cccc(-c4cn(CCc5ccc(S(N)(=O)=O)cc5)nn4)c3)c2cc1OCCOC |  |  | Ki hCA II over Ki hCA XII | 0.05
CCOC(=O)CSc1nc2ccccc2c(=O)n1CCc1ccc(S(N)(=O)=O)cc1 | inhibitor | stopped-flow | Ki hCA II over Ki hCA XII | 0.6
NS(=O)(=O)c1c(F)c(F)c([S+]([O-])CCO)c(F)c1NC1CCCCCCC1 (stereo not drawn) |  | thermal shift | Kd CA XII over Kd CA II | 0.1
NS(=O)(=O)c1ccc(Nc2nc3nccc(-c4ccc5ccccc5c4)n3n2)cc1 |  | stopped-flow CO2 hydrase | Ki hCA II over Ki CA12 | 5.2
CC(C)(C)Nc1c(F)c(S(N)(=O)=O)c(F)c(F)c1S(=O)(=O)CCc1ccccc1 |  | thermal shift | Kd CA XII over Kd CA II | 39
NS(=O)(=O)c1ccc(CCn2c(SCC(=O)N/N=C/c3ccccc3O)nc3ccccc3c2=O)cc1 | inhibitor | stopped-flow | Ki hCA I over Ki hCA XII | 13

Some of these lines once more:
SMILES | mode | method | reference | selectivity ratio
NS(=O)(=O)c1ccc(CCn2c(SCC(=O)N/N=C/c3ccccc3O)nc3ccccc3c2=O)cc1 | inhibitor | stopped-flow | Ki hCA I over Ki hCA XII | 13
